Assay results pooled from the literature.
Each numbered part is a random draw from the data of one study; scales do not carry over between parts. Changes are numbered by the printed parent chain.

Block 1
Target: RNA binding protein fox-1 homolog 2, RRM domain, GST-SBP tag (RBFOX2, Homo sapiens, UniProt O43251-10, residues 100-194)
Technique: RNA Bind-n-Seq
Molecule type: RNA
Matrix: in vitro
Tested at: 365 nM
Notes: natural RNA segment, single round, ends assumed
Reference: no-protein control
Direction: higher = stronger binding
Endpoint: RBNS enrichment (R)
Construct (chain): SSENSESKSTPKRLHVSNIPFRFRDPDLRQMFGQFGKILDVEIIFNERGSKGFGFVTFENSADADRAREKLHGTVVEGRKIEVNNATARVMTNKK
Strand = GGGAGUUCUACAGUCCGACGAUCACACAUAGAUCGGAGUGAACAGAGAGCUUUGCCUCAAUCAUUUUUCUGGCUUUCCUCUGCAGCCAGGGAAGUGGACAGGAAACUGGACCUUAGGGACACCCUGCAGAGUAUGGAAUUCUCGGGUGCCAA; value = 0.472
Strand = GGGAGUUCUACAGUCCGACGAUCUUAAAAUGUAUUUUCACAACCCCAGUGGCUGUGGCCAAAUGAGUCCUCAUUGAACACGAGAUGGAGCUAGGAAUGCACGUGGGGCUGUGAACUGGAUGCACUGGCCAUAGUGGAAUUCUCGGGUGCCAA; value = 4.2
Strand = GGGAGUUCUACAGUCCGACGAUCCUCCUCCACCAUCACAAUCUCACCCAAACUCCUGCUCACUCAAGCAAAAGCAGCCUCUGGCCUUCCCUCCACCGCUUUGCUCCAUCUGGCUUACCACUCUCCAGGGCCUCUGGAAUUCUCGGGUGCCAA; value = 1.23
Strand = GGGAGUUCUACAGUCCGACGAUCCUCCUUGUAAGAGCUUCAACCCAAGUCCUCCAAUUCACAUUAAGGAAUCCAUACUAAAGGGGGACUUGAGGGUGUGUACCCUACAGGCCAGCCUUCCACAUCGUGUCAGUUGGAAUUCUCGGGUGCCAA; value = 0.295
Strand = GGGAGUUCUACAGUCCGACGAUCAGGAGCUUUCUUUUAUGUAAAUUGGAUAAAUACACACACCAUACACUAUCCACAGAUAUAGCCAAGUAGAUUUGGGUAGAGGAUACUAUUUCCAGAAUAGUGUUUAGCUCUGGAAUUCUCGGGUGCCAA; value = 0.707
Strand = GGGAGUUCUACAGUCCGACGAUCACCGGGGUUUCUACUCCUGUACCCUCUGCAGGUGGAGAGAGAGAAGCUGGGCCCAGUUUGGCCAUGCCUGCUGGCACAGACGCCUUAACUGUGUGGAUGACUGUGUGACUUGGAAUUCUCGGGUGCCAA; value = 0.291
Strand = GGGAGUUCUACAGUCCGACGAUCUCCUAGGACUCUGUACUUGAUUUUAAGCACUGGAGGAAACACCUCAGCAGUUUUGUGGUCUGCUAAUUGUGUGCUGCACACACAGCUGCCUGCUCUAGGGCCUGCCCAGCUGGAAUUCUCGGGUGCCAA; value = 0.267
Strand = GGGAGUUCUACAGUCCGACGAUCAUUGCUUUGAUAAACAGAGUUGUUUGGAAUUAUUGAAGAACAUUUUAAAAUGACUCCCUCAGUGAGUGCGUUGUCCAGUGUAUCUCAAAAAUCACCUAGGAGUUUUGCUAUGGAAUUCUCGGGUGCCAA; value = 0.396
Strand = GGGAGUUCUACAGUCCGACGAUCGAUAAUUCUGAGAUCAUGGGUGAGGGGUGGUGCAUGUUGAGAUUUAAAUUGGCAUAAAGCUGCAUACUUUUUGUCUAGCUGUUUGAUUUCAUUUUUUAAUAUAGUAUGCCUGGAAUUCUCGGGUGCCAA; value = 1.6
Strand = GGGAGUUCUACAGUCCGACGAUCAGGUUUCCUGGAGGCAAAGUUUAUGAAAUCCUUUCUGUAACUCCAUAAAGAUGUCUGCAGCUAUUUCCUACCCAGAUGUUCCUGAUGUGAUAAGCAGGGGACUUUUUUUUUGGAAUUCUCGGGUGCCAA; value = 0.329
Strand = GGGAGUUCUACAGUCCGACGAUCGGGAAAGCUGGAUCCCUCUGGCUGACUUAGAGUACUGUGACUUGGGCAUUGCUAAUGCCAGCGUGGGGCUUGCUUGUUUGGGGAGUGGGCUAAGUGGGUGUAGGGGUGGAUGGAAUUCUCGGGUGCCAA; value = 1.73
Strand = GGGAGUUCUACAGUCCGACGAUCUCCCCUCUACUUGCGAGUUAUGGAAUUUCUAUUCCAUAACUGAAGUCUUUAUGAUAACCUAAUUUUUAAAAAUGAAUUUGACUAACUUAAGUGCAAAACAUGUAAAUUUGUGGAAUUCUCGGGUGCCAA; value = 0.789

Block 2
Organism: Saccharomyces cerevisiae
Read-out: binding
Technique: competitive growth deep sequencing
Molecule type: peptide
Strain: cyclin E1-Cln2 fusion strain
Tested at: concentration not given
Notes: peptide tiling library
Direction: direction not given
Endpoint: growth enrichment score
Sequence = KRCATPVIIDEILPSK; value = 0.866
Sequence = ESSQLTVQAEFDMSAI; value = -0.00248
Sequence = RRVLCFDS; value = 0.421
Sequence = TARRIFQEPTEPKTKA; value = -0.0608
Sequence = VKRLNFRSEEME; value = 0.0551
Sequence = SCCKRKLVVGNGPEGP; value = -0.615
Sequence = SAVPLILPQAPSGPSY; value = 1.4
Sequence = KPITLDTTDFQESFVT; value = 0.121
Sequence = EPRNLLSLFEDTLDPT; value = 1.24
Sequence = IPDRSTKPVVFSPT; value = 0.392
Sequence = DSDSDSEGGAAGGEAD; value = 1.05
Sequence = ALTMEALEDPSPELME; value = 1.51

Block 3
Target: HLF, bZIP domain (human)
Technique: DHFR protein complementation
Matrix: yeast
Notes: single substitutions, most at no-binding floor
Reference: wild-type JUN-FOS pair
Direction: higher = stronger binding
Endpoint: binding fitness
Starting sequence: JUN, bZIP domain (human); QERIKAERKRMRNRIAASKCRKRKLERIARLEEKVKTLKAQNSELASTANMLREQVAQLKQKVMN; partner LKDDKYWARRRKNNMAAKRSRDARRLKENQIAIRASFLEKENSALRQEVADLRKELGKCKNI
Change = E44L; value = -1.17 natural log
Change = K39H; value = -1.36 natural log
Change = K34S; value = -1.47 natural log
Change = L38D; value = -1.26 natural log
Change = R53L; value = -1.52 natural log
Change = K39A; value = -1.32 natural log
Change = S47R; value = -1.31 natural log
Change = E32A; value = -1.35 natural log
Change = S43K; value = -1.23 natural log
Change = A29P; value = -1.53 natural log
Change = I28W; value = -1.4 natural log
Change = N42I; value = -1.35 natural log
Change = K36W; value = -1.42 natural log
Change = A49Q; value = -1.35 natural log
Change = E32L; value = -1.39 natural log
Change = K39F; value = -1.46 natural log
Change = A40C; value = -1.44 natural log
Change = M51E; value = -1.34 natural log
Change = A46M; value = -1.13 natural log

Block 4
Target: Ras GTPase-activating protein-binding protein 1, RRM domain (G3BP1, Homo sapiens, UniProt Q13283)
Sequence of UniProt Q13283 (whole entry, looked up): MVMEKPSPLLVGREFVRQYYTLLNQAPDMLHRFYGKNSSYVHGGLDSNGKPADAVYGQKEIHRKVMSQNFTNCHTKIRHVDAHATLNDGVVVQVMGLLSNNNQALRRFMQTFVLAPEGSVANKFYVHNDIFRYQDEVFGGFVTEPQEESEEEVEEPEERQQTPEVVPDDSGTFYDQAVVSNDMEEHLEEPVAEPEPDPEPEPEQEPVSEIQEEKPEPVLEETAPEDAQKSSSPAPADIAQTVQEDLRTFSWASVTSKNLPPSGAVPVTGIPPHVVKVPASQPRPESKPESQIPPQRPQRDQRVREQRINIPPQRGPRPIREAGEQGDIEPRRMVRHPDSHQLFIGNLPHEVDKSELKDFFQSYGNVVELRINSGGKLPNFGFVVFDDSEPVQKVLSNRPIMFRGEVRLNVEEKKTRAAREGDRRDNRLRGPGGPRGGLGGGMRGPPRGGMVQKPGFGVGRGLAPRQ
Technique: RNA Bind-n-Seq
Molecule type: RNA
Matrix: in vitro
Tested at: 1 µM
Notes: whole 134-nt RNA, ends assumed
Together with: 150 mM KCl
Reference: input library
Direction: higher = stronger binding
Endpoint: log2 enrichment
Strand = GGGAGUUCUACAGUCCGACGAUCUGGGAGGUGGAUUUUGUUUAUUUUUUUAGCUCAUUUCCAGGGGUGGGAAUUUUUUUUUAAUAUGUGUCAUGAAUAAAGUUGUUUUAGAAAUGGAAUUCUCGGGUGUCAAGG; value = 0.792
Strand = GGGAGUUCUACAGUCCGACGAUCAAGUCCUGUGCUACACAUCGUAUGUACCGAAUCAAAUUUAAACCCCCAAACCCAAAAAAGUAUUAUGUUACGCCGUUCGGAUCUGCACUUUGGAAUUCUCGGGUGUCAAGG; value = -0.176
Strand = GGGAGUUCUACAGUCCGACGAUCCACAGACAACACGCACCCACACAGACACAGCGGGAAGGGGUUGGGAUGGGGACAGGGUGCACAGCAGGGCGGGGUAGGACCCCAGCCCCUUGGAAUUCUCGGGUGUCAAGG; value = 0.137
Strand = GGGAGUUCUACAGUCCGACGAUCAGUCCUGUGCUACACAUCGUAUGUACCGAAUCGGCCCCCGGGGCCCCCGGCCCCCGGGAAAGUAUUAUGUUACGCCGUUCGGAUCUGCACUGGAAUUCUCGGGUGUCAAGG; value = -0.483
Strand = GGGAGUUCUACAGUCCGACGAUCUGGCCUUGGUGGCAUGCGGGGAGGAAGAGGUGGCCUCAUGGAUCGUGGUGGUCCCGGUGGAAUGUUCAGAGGUGGCCGUGGUGGAGACAGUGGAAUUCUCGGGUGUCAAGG; value = 0.5
Strand = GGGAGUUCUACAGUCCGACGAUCCCUGUGCUACACAUCGUAUGUACCGAAUCGGGUUUUUUUGGGUUUUUUUGGUUUUUUUGGAAAGUAUUAUGUUACGCCGUUCGGAUCUGCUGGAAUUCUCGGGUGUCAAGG; value = -0.121
Strand = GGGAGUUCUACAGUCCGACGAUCCAAGUCCUGUGCUACACAUCGUAUGUACCGAAUCGUGUGUGUGUGUGUGUGUGUGUAAAGUAUUAUGUUACGCCGUUCGGAUCUGCACUUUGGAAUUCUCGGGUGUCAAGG; value = -0.0905
Strand = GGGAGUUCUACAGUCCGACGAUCUCCAGCCACUCACCGGCGAUCCAGGUCCAGAACCCCCCUGAUAAGCCGACGUAGGUCCAGAUCUCGAACUUCACCAGUCAGCCGGAGACGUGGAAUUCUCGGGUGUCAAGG; value = -0.26
Strand = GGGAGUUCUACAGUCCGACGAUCUGGCCCUGGUGGCAUGCGGGGAGGAAGAGGUGGCCUCAUGGAUCGUGGUGGGCCCGGUGGAAUGUUCAGAGGUGGCCGUGGUGGAGACAGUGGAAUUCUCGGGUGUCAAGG; value = -0.0814
Strand = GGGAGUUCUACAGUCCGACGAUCUGUGCUACACAUCGUAUGUACCGAAUCGUGUGUGUGUGUGUGUGUGUGUGUGUGUGUGUGUGUAAAGUAUUAUGUUACGCCGUUCGGAUCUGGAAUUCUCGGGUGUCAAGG; value = 0.291
Strand = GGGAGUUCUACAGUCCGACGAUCACCAUGCAGGUGGGCAUCUUUGGGAAGUGGGGCAAGGGGGGGUUAGGGAGGGGGGUAACACUUUGGGAACAGGUGGUCCCAGGUCGUUUCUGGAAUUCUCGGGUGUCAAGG; value = 1.02
Strand = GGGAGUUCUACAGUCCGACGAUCCUCAAGUCCUGUGCUACACAUCGUAUGUACCGAAUCGGGAAAGGGUGGGUGGGAAAGUAUUAUGUUACGCCGUUCGGAUCUGCACUUCCAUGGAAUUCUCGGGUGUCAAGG; value = 0.683
Strand = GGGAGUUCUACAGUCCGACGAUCCACAGACAACACGCACCCACACAGACACAGAGGGAAGGGGUUGGGAAAGGGACAGGGUGCACAGCAGGGCGGGGUAGGACCCCAGCCCCUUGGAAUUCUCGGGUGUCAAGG; value = -0.147
Strand = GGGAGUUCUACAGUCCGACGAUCUCCUGUGCUACACAUCGUAUGUACCGAAUCGGGGAAAGGGGAAAAAAAGGGGAAAGGGGAAAGUAUUAUGUUACGCCGUUCGGAUCUGCAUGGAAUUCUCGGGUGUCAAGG; value = 0.871

Block 5
Target: ABI1, truncated, D143A, DHFR fusion (Arabidopsis thaliana)
Technique: DHFR PCA, deep sequencing
Matrix: yeast
Notes: methotrexate growth selection, single substitutions
Together with: (+)-ABA 2500 µM
Reference: wild-type fitted maximum
Direction: higher = stronger binding
Endpoint: relative binding score
Starting sequence: PYL1, truncated, DHFR fusion (Arabidopsis thaliana); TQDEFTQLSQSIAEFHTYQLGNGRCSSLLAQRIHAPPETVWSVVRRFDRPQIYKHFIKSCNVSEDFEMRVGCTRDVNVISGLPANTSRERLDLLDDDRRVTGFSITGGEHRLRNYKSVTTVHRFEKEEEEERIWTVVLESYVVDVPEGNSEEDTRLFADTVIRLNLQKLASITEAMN
Change = E147N; value = 91.5%
Change = I172G; value = 78.3%
Change = C72W; value = 93.4%
Change = R155D; value = 25%
Change = I12T; value = 90.1%
Change = R113T; value = 111%
Change = I162R; value = 36.4%
Change = I172K; value = 91%
Change = R98K; value = 109%
Change = A30M; value = 104%
Change = D97N; value = 105%
Change = V137F; value = 12.1%
Change = R113G; value = 101%
Change = V43G; value = 27.9%
Change = I172P; value = 14.9%
Change = N114A; value = 93.2%
Change = S63T; value = 94.8%
